{"data": "Measurements pooled from the literature", "RPS6KA2 N-terminal kinase domain": "Ribosomal protein S6 kinase alpha-2, N-terminal kinase domain (RPS6KA2, Homo sapiens, UniProt Q15349)", "RPS6KA2 C-terminal kinase domain": "Ribosomal protein S6 kinase alpha-2, C-terminal kinase domain (RPS6KA2, Homo sapiens, UniProt Q15349)", "note": "Lines come from different studies, so protocols differ."}
{"Compound": "CNC1C[S+]2CC[S+]3CC[S+](C1)[Ru-4]321([N]=C=S)[n]2c3ccc(OC)cc3c3c4c(c5cc(F)c[n+]1c5c32)C(=O)NC4=O (stereo not drawn)", "target": "RPS6KA2 N-terminal kinase domain", "method": "KinomeScan", "tested at": "0.1 µM", "relative to": "untreated", "remaining binding": "84%"}
{"Compound": "Nc1ncc2c(n1)-c1c([nH]c3ccc(C4=CCOCC4)cc13)CCC2", "target": "RPS6KA2 C-terminal kinase domain", "observed": "binding", "method": "competition with immobilised ligand", "tested at": "1 µM", "remaining binding": "100%"}
{"Compound": "CNC(=O)C1CCN(c2cc(C)c(F)cc2NC(=O)c2ccc(-c3cc(O)ccc3C)c(C)c2)CC1", "target": "RPS6KA2 C-terminal kinase domain", "observed": "binding", "method": "competition with immobilised ligand", "tested at": "1 µM", "remaining binding": "95%"}
{"Compound": "Cc1ccc(-c2c(/C=C(\\C#N)C(=O)NC(C)C)n(CCCO)c3ncnc(N)c23)cc1", "target": "RPS6KA2 C-terminal kinase domain", "observed": "binding", "method": "competition with immobilised ligand", "tested at": "1 µM", "remaining binding": "66%"}
{"Compound": "COc1cc(Nc2nc(C)cc(-c3cnn4nc(OC)ccc34)n2)cc(C(F)(F)F)c1", "target": "RPS6KA2 N-terminal kinase domain", "observed": "binding", "method": "competition with immobilised ligand", "tested at": "1 µM", "remaining binding": "93%"}
{"Compound": "C=CC(=O)N1CCCC(n2c(=O)c3ncccc3n(Cc3ccc(Oc4ccccc4)cc3)c2=O)C1 (stereo not drawn)", "target": "RPS6KA2 C-terminal kinase domain", "observed": "binding", "method": "competition with immobilised ligand", "tested at": "1 µM", "remaining binding": "100%"}
{"Compound": "Cc1cnc2nc1Nc1cccc(c1)COC/C=C/COCc1cc(ccc1OCCN1CCOCC1)N2", "target": "RPS6KA2 C-terminal kinase domain", "observed": "binding", "method": "competition with immobilised ligand", "tested at": "0.1 µM", "remaining binding": "100%"}
{"Compound": "CC(C)=CC1OC(C)(C)C2C=C3C(=O)C(Cl)=CC(O)C3C3C(O)C4OC4C(=O)C132 (stereo not drawn)", "target": "RPS6KA2 C-terminal kinase domain", "observed": "cell-free assay", "method": "competition with immobilised ligand", "tested at": "10 µM", "remaining binding": "82%"}
{"Compound": "CCN1CCN(Cc2ccc(C(=O)Nc3ccc(C)c(NCc4cnc5[nH]ccc5c4OC)c3)cc2C(F)(F)F)CC1", "target": "RPS6KA2 N-terminal kinase domain", "observed": "binding", "method": "competition with immobilised ligand", "tested at": "1 µM", "remaining binding": "91%"}
{"Compound": "COc1cc(Nc2nccc(-c3cnn4nc(OC)ccc34)n2)cc(C(F)(F)F)c1", "target": "RPS6KA2 C-terminal kinase domain", "observed": "binding", "method": "competition with immobilised ligand", "tested at": "1 µM", "remaining binding": "100%"}
{"Compound": "C=CC(=O)N1CCc2ccc(-n3c(=O)ccc4cnc5ccc(-c6cnn(C)c6)cc5c43)cc21", "target": "RPS6KA2 C-terminal kinase domain", "method": "KINOMEscan", "tested at": "1 µM", "relative to": "DMSO control", "remaining binding": "68%"}
{"Compound": "COc1c(Cl)cccc1Nc1c(-c2ccncc2C#C[C@@]2(C)CCCN2C(=O)/C=C/CN(C)C)[nH]c2c1C(=O)NCC2", "target": "RPS6KA2 C-terminal kinase domain", "observed": "binding", "method": "competition with immobilised ligand", "tested at": "3 µM", "remaining binding": "84%"}
{"note": "Excerpt of the above:"}
{"Compound": "COc1c(Cl)cccc1Nc1c(-c2ccncc2C#C[C@@]2(C)CCCN2C(=O)/C=C/CN(C)C)[nH]c2c1C(=O)NCC2", "target": "RPS6KA2 C-terminal kinase domain", "observed": "binding", "method": "competition with immobilised ligand", "tested at": "3 µM", "remaining binding": "84%"}
